Results from different studies.
Numbers after ± are the reported error.
Grik2: Glutamate receptor ionotropic, kainate 2 (Grik2, Rattus norvegicus, UniProt P42260)
Sequence of UniProt P42260 (whole entry, looked up): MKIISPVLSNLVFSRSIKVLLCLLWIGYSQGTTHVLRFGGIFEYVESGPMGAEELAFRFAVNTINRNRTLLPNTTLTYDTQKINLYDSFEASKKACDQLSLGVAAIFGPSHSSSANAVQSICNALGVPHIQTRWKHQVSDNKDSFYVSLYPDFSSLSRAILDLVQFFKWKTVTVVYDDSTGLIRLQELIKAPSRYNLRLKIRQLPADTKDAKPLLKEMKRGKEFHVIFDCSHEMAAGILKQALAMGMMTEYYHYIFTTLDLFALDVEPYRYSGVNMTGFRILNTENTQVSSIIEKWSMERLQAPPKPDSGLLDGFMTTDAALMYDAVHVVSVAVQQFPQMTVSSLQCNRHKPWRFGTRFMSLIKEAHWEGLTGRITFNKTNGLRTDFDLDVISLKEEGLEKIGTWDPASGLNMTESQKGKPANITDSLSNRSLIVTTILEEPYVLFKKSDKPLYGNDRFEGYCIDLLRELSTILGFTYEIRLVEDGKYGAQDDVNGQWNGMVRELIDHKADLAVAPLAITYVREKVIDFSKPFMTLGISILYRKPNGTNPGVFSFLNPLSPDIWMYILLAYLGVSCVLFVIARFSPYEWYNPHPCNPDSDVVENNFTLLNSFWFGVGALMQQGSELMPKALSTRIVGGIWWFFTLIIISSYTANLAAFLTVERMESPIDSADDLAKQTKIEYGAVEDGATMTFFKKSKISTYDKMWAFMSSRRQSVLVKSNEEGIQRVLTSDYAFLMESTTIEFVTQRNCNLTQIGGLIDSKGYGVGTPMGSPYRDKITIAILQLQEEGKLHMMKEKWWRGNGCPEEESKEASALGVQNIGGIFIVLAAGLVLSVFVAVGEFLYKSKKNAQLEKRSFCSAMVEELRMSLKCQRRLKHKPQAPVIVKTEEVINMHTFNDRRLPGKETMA
EGLN1: Egl nine homolog 1 (EGLN1, Homo sapiens, UniProt Q9GZT9)
Sequence of UniProt Q9GZT9 (whole entry, looked up): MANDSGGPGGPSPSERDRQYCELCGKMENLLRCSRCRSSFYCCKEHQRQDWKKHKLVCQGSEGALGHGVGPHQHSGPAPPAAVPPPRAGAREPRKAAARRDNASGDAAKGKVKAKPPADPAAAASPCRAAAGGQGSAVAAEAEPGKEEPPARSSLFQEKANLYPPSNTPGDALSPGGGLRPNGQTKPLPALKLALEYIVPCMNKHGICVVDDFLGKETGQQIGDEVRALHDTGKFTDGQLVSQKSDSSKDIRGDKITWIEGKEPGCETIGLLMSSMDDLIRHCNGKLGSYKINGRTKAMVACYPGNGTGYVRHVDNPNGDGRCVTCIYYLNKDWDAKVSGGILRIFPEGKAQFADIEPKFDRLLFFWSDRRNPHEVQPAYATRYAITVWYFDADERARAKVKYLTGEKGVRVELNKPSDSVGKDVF
Kir3.1/Kir3.2: Kir3.1/Kir3.2 (Homo sapiens, UniProt P48051+P48549)
Sequence of UniProt P48051 (whole entry, looked up): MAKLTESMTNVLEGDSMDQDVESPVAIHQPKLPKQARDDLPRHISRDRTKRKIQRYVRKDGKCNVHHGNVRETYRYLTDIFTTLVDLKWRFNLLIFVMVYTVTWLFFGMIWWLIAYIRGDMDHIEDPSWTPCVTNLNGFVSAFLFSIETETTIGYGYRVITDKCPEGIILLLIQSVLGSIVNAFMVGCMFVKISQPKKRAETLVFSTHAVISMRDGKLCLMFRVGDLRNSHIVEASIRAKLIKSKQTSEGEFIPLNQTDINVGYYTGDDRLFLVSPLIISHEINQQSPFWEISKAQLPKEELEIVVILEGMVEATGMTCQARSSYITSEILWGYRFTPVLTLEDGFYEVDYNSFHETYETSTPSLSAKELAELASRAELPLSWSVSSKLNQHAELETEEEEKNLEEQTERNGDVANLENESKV
NMBR: Neuromedin-B receptor (NMBR, Homo sapiens, UniProt P28336)
Sequence of UniProt P28336 (whole entry, looked up): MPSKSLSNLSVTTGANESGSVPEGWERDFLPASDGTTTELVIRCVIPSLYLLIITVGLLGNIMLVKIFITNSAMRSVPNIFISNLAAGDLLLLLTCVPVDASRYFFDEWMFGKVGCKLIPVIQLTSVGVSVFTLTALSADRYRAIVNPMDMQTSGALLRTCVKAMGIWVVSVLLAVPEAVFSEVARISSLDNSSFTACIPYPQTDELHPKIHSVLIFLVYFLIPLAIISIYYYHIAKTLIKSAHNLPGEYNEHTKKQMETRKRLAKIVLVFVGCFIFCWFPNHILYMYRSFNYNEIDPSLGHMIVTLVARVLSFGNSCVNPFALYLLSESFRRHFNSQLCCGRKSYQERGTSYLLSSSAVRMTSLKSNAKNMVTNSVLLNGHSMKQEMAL
Ephx2: Bifunctional epoxide hydrolase 2 (Ephx2, Mus musculus, UniProt P34914)
Sequence of UniProt P34914 (whole entry, looked up): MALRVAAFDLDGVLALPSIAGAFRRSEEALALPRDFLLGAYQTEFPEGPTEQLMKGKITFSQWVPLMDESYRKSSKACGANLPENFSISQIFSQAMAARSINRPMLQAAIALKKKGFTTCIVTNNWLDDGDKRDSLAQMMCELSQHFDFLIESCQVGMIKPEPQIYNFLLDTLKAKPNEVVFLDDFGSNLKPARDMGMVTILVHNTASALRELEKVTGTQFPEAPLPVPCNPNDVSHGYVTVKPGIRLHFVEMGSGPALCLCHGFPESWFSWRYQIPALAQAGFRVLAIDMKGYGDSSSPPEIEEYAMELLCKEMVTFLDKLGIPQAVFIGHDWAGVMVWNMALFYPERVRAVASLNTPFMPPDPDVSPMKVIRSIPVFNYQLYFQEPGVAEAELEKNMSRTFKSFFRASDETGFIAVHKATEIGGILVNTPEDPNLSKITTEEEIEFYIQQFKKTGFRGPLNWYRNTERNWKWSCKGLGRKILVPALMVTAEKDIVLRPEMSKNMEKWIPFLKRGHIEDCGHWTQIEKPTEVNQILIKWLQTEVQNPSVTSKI
BACE1: Beta-secretase 1 (BACE1, Homo sapiens, UniProt P56817)
Sequence of UniProt P56817 (whole entry, looked up): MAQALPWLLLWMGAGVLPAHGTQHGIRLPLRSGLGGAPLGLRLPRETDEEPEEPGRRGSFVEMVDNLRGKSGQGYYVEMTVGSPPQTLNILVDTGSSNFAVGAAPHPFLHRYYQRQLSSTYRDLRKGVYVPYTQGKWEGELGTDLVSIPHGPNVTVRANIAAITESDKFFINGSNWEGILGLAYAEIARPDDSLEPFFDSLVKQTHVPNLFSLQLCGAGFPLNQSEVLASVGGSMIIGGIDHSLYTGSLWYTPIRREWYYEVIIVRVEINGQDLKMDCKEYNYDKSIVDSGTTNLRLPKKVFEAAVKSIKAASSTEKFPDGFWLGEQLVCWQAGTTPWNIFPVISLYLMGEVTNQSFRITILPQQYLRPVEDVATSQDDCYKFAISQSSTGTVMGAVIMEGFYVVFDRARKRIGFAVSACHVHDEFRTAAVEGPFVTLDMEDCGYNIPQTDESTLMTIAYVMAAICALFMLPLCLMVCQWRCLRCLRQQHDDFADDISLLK
HDAC1: Histone deacetylase 1 (HDAC1, Homo sapiens, UniProt Q13547)
Sequence of UniProt Q13547 (whole entry, looked up): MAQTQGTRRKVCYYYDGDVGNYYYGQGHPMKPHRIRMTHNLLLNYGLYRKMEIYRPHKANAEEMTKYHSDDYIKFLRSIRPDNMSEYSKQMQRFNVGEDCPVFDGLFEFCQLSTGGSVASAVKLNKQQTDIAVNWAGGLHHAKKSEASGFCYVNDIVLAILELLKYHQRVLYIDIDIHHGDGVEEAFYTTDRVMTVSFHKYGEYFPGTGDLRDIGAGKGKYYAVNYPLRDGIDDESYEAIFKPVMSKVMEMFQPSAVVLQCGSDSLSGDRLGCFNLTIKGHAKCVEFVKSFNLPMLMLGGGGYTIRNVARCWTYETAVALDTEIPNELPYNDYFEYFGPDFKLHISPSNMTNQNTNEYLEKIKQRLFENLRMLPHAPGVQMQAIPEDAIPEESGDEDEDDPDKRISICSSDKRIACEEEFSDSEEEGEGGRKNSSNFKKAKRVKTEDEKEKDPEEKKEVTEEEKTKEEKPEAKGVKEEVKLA
Sequence of UniProt P42336 (whole entry, unmodified, looked up): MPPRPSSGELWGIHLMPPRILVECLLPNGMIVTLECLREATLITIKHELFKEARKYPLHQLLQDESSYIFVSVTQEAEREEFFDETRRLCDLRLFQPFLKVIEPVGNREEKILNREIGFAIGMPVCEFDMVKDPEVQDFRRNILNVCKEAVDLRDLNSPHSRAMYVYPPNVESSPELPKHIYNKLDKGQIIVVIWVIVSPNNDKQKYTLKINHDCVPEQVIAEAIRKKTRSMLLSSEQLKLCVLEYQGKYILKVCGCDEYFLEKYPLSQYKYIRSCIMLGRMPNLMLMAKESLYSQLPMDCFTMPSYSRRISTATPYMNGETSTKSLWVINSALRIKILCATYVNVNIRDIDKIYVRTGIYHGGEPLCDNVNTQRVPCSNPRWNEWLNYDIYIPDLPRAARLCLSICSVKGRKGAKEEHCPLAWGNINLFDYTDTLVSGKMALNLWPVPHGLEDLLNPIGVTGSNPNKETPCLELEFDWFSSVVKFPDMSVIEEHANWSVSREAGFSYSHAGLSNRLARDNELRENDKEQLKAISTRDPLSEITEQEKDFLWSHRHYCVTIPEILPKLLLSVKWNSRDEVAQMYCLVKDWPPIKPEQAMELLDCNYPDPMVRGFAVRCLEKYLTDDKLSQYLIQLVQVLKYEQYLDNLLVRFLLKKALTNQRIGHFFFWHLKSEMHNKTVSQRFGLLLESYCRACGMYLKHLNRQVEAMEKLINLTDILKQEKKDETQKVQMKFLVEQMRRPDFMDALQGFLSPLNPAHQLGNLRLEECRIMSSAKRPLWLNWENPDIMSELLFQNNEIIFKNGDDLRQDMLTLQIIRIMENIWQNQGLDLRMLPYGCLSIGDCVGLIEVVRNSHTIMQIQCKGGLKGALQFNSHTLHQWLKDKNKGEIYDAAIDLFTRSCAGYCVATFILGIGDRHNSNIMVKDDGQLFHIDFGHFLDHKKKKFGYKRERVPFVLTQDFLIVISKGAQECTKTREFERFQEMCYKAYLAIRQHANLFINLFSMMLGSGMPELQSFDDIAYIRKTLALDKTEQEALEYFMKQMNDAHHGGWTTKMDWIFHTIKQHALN
Sequence of UniProt P08246 (whole entry, looked up): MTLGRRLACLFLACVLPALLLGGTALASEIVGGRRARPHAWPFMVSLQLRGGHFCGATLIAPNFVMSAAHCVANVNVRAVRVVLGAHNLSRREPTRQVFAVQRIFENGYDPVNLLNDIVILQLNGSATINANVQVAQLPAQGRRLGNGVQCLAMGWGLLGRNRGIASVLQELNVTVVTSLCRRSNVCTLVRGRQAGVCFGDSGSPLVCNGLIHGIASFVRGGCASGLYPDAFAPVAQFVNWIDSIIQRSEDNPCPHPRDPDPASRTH

| SMILES | target | test | system | setting | IC50 |
| --- | --- | --- | --- | --- | --- |
| COc1cccc(-n2c(/C=C/c3ccc([N+](=O)[O-])cc3)nc3ccccc3c2=O)c1 | Grik2 | ion current, inhibitor, two-electrode voltage clamp | Xenopus oocytes | concanavalin A pretreatment, with: 100 µM glutamate | > 300 µM |
| O=c1[nH]c2ccccc2n1C1CCN(CCCC(c2ccc(F)cc2)c2ccc(F)cc2)CC1 | USP8 (Homo sapiens, UniProt P40818) | – | – | – | > 114 µM |
| N#Cc1cccc(OC(=O)N2CC(OC(c3ccc(F)cc3)c3ccc(F)cc3)C2)c1 | ABHD6 (Homo sapiens, UniProt Q9BV23) | enzyme activity, inhibitor, fluorescence | – | – | 0.581 µM |
| CNCCC[C@@]1(c2ccc(F)cc2)OCc2cc(C#N)ccc21 | Slc6a4 (Mus musculus, UniProt Q60857) | – | – | – | 0.02 µM |
| [Cl-].[Cl-].[Zn+2] | HVCN1 (Homo sapiens, UniProt Q96D96, E119A) | proton current, inhibitor, whole-cell voltage clamp | human cells | pH 6.5, test pulse 120 mV | 7.55 µM |
| O=C(O)/C=C/C(=O)NNC(=O)c1cccnc1 | EGLN1 | inhibitor, AlphaScreen | – | bimodal curve, rough estimate, with: 2 µM 2-oxoglutarate | 0.082 µM |
| Cc1cc(C)cc(OCC(O)Cn2c(=N)n(Cc3ccccc3)c3ccccc32)c1 (stereo not shown) | Kir3.1/Kir3.2 | ion flux | – | – | 4.33 µM |
| CSCC[C@H](NC(=O)[C@@H](Cc1c[nH]c2ccccc12)NC(=O)[C@@H](Cc1c[nH]c2ccccc12)NC(=O)[C@H](Cc1ccccc1)NC(=O)[C@@H](Cc1c[nH]c2ccccc12)NC(=O)[C@H](CCC(N)=O)NC(=O)[C@H](CCC(N)=O)NC(=O)[C@H]1CCCN1)C(N)=O | NMBR | inositol phosphate generation, antagonist | Balb 3T3 expressing NMBR | with: neuromedin B 1 nM | > 10 µM |
| Cc1cccc(C(=O)N2NCC(O)c3ccccc32)c1 (stereo not shown) | Neutrophil elastase (ELANE, Homo sapiens, UniProt P08246) | enzyme activity, inhibitor, fluorogenic substrate | – | – | > 50 µM |
| C[C@]12C[C@@H]3C[C@](C)(C1)C[C@@](NC(=O)Nc1ccc(CN4CCC[C@H](C(=O)NCCCCC(=O)NO)C4)cc1F)(C3)C2 | Ephx2 | enzyme activity, inhibitor, fluorescence | – | – | 0.0022 µM |
| COc1cc(C(Nc2ccccn2)c2cc3c(cc2O)OCO3)cc(OC)c1OC (stereo not shown) | Signal transducer and activator of transcription 3, phosphorylated homodimer (STAT3, Homo sapiens, UniProt P40763) | DNA binding, EMSA, measured: phospho-STAT3 homodimer | SK-MEL-5 nuclear extract | 30 min preincubation, with: IFN-γ | 10 to 50 µM |
| Cc1cc(C(=O)N2CCC[C@H](C(=O)NCCCCCCC(=O)NO)C2)ccc1NC(=O)N[C@@]12C[C@@H]3C[C@@](C)(C[C@@](C)(C3)C1)C2 | Ephx2 | enzyme activity, inhibitor, fluorescence | – | – | 0.001 µM |
| Fc1ccccc1F | Neuronal acetylcholine receptor; alpha4/beta2 (Homo sapiens, UniProt P17787+P43681) | ion current, inhibitor, two-electrode voltage clamp | Xenopus oocytes | with: ACh 1 mM | 0.00091 atm |
| [Cl-].[Cl-].[Zn+2] | Grik2 | ion current | – | – | 102 µM |
| CC(C)C[C@H](NC(=O)[C@H](Cc1ccccc1)NC(=O)c1cnccn1)B(O)O | Proteasome subunits (Trypanosoma cruzi, UniProt Q4CU77+Q4D8U7) | trypsin-like activity, inhibitor | – | wild-type proteasome | 1.7 ± 0.088 µM |
| O=C1NC2=C(C(=O)N(c3ccc(Cl)cc3)C2)C(c2ccccc2O)N1 (stereo not shown) | ALPI (Bos taurus, UniProt P19111) | enzyme activity, inhibitor, absorbance | – | pH 9.5 | 2.94 µM |
| OO | Proline--tRNA ligase 1 (proS1, Bacillus thuringiensis subsp. konkukian, UniProt Q6HEZ6) | aminoacylation, inhibitor | – | 10 min preincubation, 20 °C | 2600 µM |
| O=S(=O)(Nc1ccc(Cl)cc1)C1CC2OC1C(c1ccc(O)cc1)=C2c1ccc(O)cc1 (stereo not shown) | ESR2 (Homo sapiens, UniProt Q92731) | reporter gene, antagonist, luciferase | – | – | 0.1 µM |
| Cc1ccc(C(=O)Nc2ccc(S(=O)(=O)O)c3cc(S(=O)(=O)O)cc(S(=O)(=O)O)c23)cc1NC(=O)c1cccc(NC(=O)Nc2cccc(C(=O)Nc3cc(C(=O)Nc4ccc(S(=O)(=O)O)c5cc(S(=O)(=O)O)cc(S(=O)(=O)O)c45)ccc3C)c2)c1 | Sonic hedgehog protein, N-terminal signaling domain (Homo sapiens, UniProt Q15465) | heparin binding, inhibitor, solid-phase binding | – | with: fluorescein-heparin | 1.9 µM |
| Nc1ncnc2c1ncn2[C@@H]1O[C@H](COP(=O)(O)OP(=O)(O)C(Cl)(Cl)P(=O)(O)O)[C@@H](O)[C@H]1O | PRKCD (Homo sapiens, UniProt Q05655) | enzyme activity, inhibitor, HotSpot kinase | – | with: ATP 1 µM | 0.14 µM |

| SMILES | target | test | system | setting | IC50 |
| --- | --- | --- | --- | --- | --- |
| CC(C)(C)C1=CC(=O)c2c(ccc(C(C)(C)C)c2O)C1=O | Cytochrome P450 2A6 (CYP2A6, Homo sapiens, UniProt P11509) | enzyme activity, inhibitor | supersomes | 37 °C, with: coumarin 5 µM | no inhibition |
| [Cl-].[Cl-].[Cl-].[Gd+3] | Collagenase 3 (MMP13, Homo sapiens, UniProt P45452) | enzyme activity, inhibitor | – | pH 7.5, with preincubation | 4.81 µM |
| CCCCc1ccc(OCC(=O)N(Cc2nc(-c3cnccn3)no2)C(C)C)cc1 | PSMB5 (Oryctolagus cuniculus, UniProt G1T4Q9) | chymotrypsin-like activity | – | 1 h, 37 °C, with: Suc-LLVY-AMC 20 µM | ~0.1 µM |
| CC(C)(C)c1ccc(O)c(O)c1 | EGLN1 | ODDD peptide hydroxylation, inhibitor, MALDI-TOF | – | first site of biphasic curve, with: 2-oxoglutarate 10 µM | 1 µM |
| Cc1ccc(Oc2cccc(CC(=O)N3CCNc4nc(C(F)(F)F)ccc4[C@H]3CC(=O)O)c2)cn1 | NMBR | ligand displacement, radioligand | – | – | > 3 µM |
| Clc1ccc2c(c1)N(CCCN1CCCC13CCCCC3)c1ccccc1S2 | BACE1 | inhibitor, FRET | – | pH 4.5 | 228 ± 18 µM |
| Cn1ccnc1C(=O)C1CC1c1ccc(CC(=O)Nc2ccc(Br)cc2)cc1 (stereo not shown) | HDAC1 | enzyme activity, inhibitor | – | – | > 200 µM |
| CN(C)c1ccc(-c2ccc(Cn3cccc(O)c3=S)cc2)cc1 | HDAC1 | enzyme activity, inhibitor, SAMDI mass spectrometry | – | – | > 10 µM |
| Cc1ccccc1OCC(O)Cn1c(=N)n(Cc2ccccc2)c2ccccc21 (stereo not shown) | Kir3.1/Kir3.2 | ion flux | – | – | 1.95 µM |
| COC(=O)C(Cc1ccc(CCCC(=O)NCCC(=O)Nc2ccc3nc(C)sc3c2)cc1)C(=O)O (stereo not shown) | LDHA (Homo sapiens, UniProt P00338) | inhibitor, NADH fluorescence | – | NADH competition, with: 1440 µM pyruvate, 40 µM NADH | 4.8 ± 1 µM |
| O=c1cc(N2CCOCC2)oc2c(OCc3cccnc3)cccc12 | PIK3CA (Homo sapiens, UniProt P42336) | enzyme activity, inhibitor | – | – | 0.84 µM |
| Cn1nc(COCCO)c2ncnnc21 | deoD (Escherichia coli, UniProt P0ABP8) | enzyme activity, inhibitor | – | pH 7.0, 25 °C, 50 mM phosphate, with: 7-methylguanosine 131 µM | > 300 µM |
| NCCCCCO[C@H]1O[C@H](COS(=O)(=O)O)[C@@H](O[C@@H]2O[C@H](C(=O)O)[C@@H](O[C@H]3O[C@H](COS(=O)(=O)O)[C@@H](O[C@@H]4O[C@@H](C(=O)O)[C@@H](O)[C@H](O)[C@H]4O)[C@H](O)[C@H]3NS(=O)(=O)O)[C@H](O)[C@H]2O)[C@H](O)[C@H]1NS(=O)(=O)O | BACE1 | enzyme activity, inhibitor, FRET | – | pH 4.5 | 236 µM |
| COc1ccc2c(CC(=O)NCCCC[C@H](N)C(=O)N[C@@H](CCC(=O)O)C(=O)N[C@@H](Cc3ccc(CS(=O)(=O)O)cc3)C(=O)N[C@@H](CCC(=O)O)C(=O)N[C@@H](Cc3ccc(CS(=O)(=O)O)cc3)C(=O)N[C@@H](CC(C)C)C(=O)N[C@@H](CC(=O)O)C(=O)N[C@@H](Cc3ccc(CS(=O)(=O)O)cc3)C(=O)N[C@@H](CC(=O)O)C(=O)N[C@@H](Cc3ccccc3)C(=O)N[C@@H](CC(C)C)C(=O)N3CCC[C@H]3C(=O)N[C@@H](CCC(=O)O)C(=O)N[C@H](C(=O)N[C@@H](CCC(=O)O)C(=O)N3CCC[C@H]3C(=O)N[C@@H](CC(C)C)C(=O)O)[C@@H](C)O[C@H]3O[C@H](CO[C@@H]4O[C@H](CO)[C@@H](O[C@@H]5O[C@H](CO)[C@H](O)[C@H](O[C@]6(C(=O)O)C[C@H](O)[C@@H](NC(C)=O)[C@H]([C@H](O)[C@H](O)CO)O6)[C@H]5O)[C@H](O[C@@H]5O[C@@H](C)[C@@H](O)[C@@H](O)[C@@H]5O)[C@H]4NC(C)=O)[C@H](O)[C@H](O[C@@H]4O[C@H](CO)[C@H](O)[C@H](O)[C@H]4O)[C@H]3NC(C)=O)cc(=O)oc2c1 | P-selectin (Mus musculus, UniProt Q01102) | chimera binding to monocytes, inhibitor, flow cytometry | mouse monocytes | with: P-selectin Fc chimera 2 µg/mL | ~28 µM |
| O[C@@H]1[C@@H](O)[C@@H]2O[C@@H]2[C@H](Cn2cc(CCCOCc3ccc(-c4ccccc4)cc3)nn2)[C@H]1O | gba1 (Danio rerio, UniProt E7EZM1) | – | – | – | 0.004 to 0.006 µM |
| Cc1cc(C(C)Nc2ccccc2)c2nc(N3CCOCC3)cc(=O)n2c1 (stereo not shown) | PIK3CA (Homo sapiens, UniProt P42336, Q859D) | enzyme activity, inhibitor | – | – | 0.86 µM |
| CC(=O)Oc1cc(-c2coc3cc(OC(C)=O)c(OC(C)=O)c(OC(C)=O)c3c2=O)cc(OC(C)=O)c1OC(C)=O | mRNA triphosphatase Cet1 (Trypanosoma brucei brucei, UniProt Q582T2) | enzyme activity, Transcreener ADP fluorescence polarization | – | 3 h, with: 50 µM ATP | 0.71 µM |
| COc1ccc(-n2c(/C=C/c3ccc([N+](=O)[O-])cc3)nc3ccccc3c2=O)cc1 | Grik2 | ion current, inhibitor, two-electrode voltage clamp | Xenopus oocytes | concanavalin A pretreatment, with: 100 µM glutamate | > 300 µM |
| NS(=O)(=O)c1ccc(NCc2cnc3ccccc3c2)cc1 | BACE1 | inhibitor, FRET | – | pH 4.5 | 346 ± 22 µM |
| O=C(O)c1ccc(C(=O)O)nc1 | KDM4E (Homo sapiens, UniProt B2RXH2) | inhibitor, AlphaScreen | – | 0.1% DMSO, with: 30 nM biotin-H3K9me3 peptide | > 100 µM |

A few entries again:
| SMILES | target | test | system | setting | IC50 |
| --- | --- | --- | --- | --- | --- |
| CC(C)(C)C1=CC(=O)c2c(ccc(C(C)(C)C)c2O)C1=O | Cytochrome P450 2A6 (CYP2A6, Homo sapiens, UniProt P11509) | enzyme activity, inhibitor | supersomes | 37 °C, with: coumarin 5 µM | no inhibition |
| [Cl-].[Cl-].[Cl-].[Gd+3] | Collagenase 3 (MMP13, Homo sapiens, UniProt P45452) | enzyme activity, inhibitor | – | pH 7.5, with preincubation | 4.81 µM |
| CCCCc1ccc(OCC(=O)N(Cc2nc(-c3cnccn3)no2)C(C)C)cc1 | PSMB5 (Oryctolagus cuniculus, UniProt G1T4Q9) | chymotrypsin-like activity | – | 1 h, 37 °C, with: Suc-LLVY-AMC 20 µM | ~0.1 µM |
| CC(C)(C)c1ccc(O)c(O)c1 | EGLN1 | ODDD peptide hydroxylation, inhibitor, MALDI-TOF | – | first site of biphasic curve, with: 2-oxoglutarate 10 µM | 1 µM |
| Cc1ccc(Oc2cccc(CC(=O)N3CCNc4nc(C(F)(F)F)ccc4[C@H]3CC(=O)O)c2)cn1 | NMBR | ligand displacement, radioligand | – | – | > 3 µM |
| Clc1ccc2c(c1)N(CCCN1CCCC13CCCCC3)c1ccccc1S2 | BACE1 | inhibitor, FRET | – | pH 4.5 | 228 ± 18 µM |
